Results collected from several papers.
Compare with care: the assays were run in different laboratories. ± gives the spread as reported.

`CCCC[C@H](NC(=O)CNC(=O)CNC(=O)CNC(=O)c1ccc(NN)nc1)C(=O)N[C@H]1CC(=O)NCCCC[C@@H](C(N)=O)NC(=O)[C@H](Cc2c[nH]c3ccccc23)NC(=O)[C@H](CCCNC(=N)N)NC(=O)[C@@H](Cc2ccccc2)NC(=O)[C@H](Cc2c[nH]cn2)NC1=O` [technetium-99m labelled] gave an uptake of 5.09 ± 2.19 %ID/g (C57 mouse, B16/F1 melanoma, kidneys; intravenous, 2 h).
`N=C(N)NCCC[C@@H]1NC(=O)[C@H](CCCCNC(=O)CC[C@H](NC(=O)CCOCCOCCOCCOCCNC(=O)CC[C@H](NC(=O)CN2CCN(CC(=O)O)CCN(CC(=O)O)CCN(CC(=O)O)CC2)C(=O)NCCOCCOCCOCCOCCC(=O)N[C@@H](CCC(=O)NCCCC[C@@H]2NC(=O)[C@@H](Cc3ccccc3)NC(=O)[C@H](CC(=O)O)NC(=O)CNC(=O)[C@H](CCCNC(=N)N)NC2=O)C(=O)NCCCC[C@@H]2NC(=O)[C@@H](Cc3ccccc3)NC(=O)[C@H](CC(=O)O)NC(=O)CNC(=O)[C@H](CCCNC(=N)N)NC2=O)C(=O)NCCCC[C@@H]2NC(=O)[C@@H](Cc3ccccc3)NC(=O)[C@H](CC(=O)O)NC(=O)CNC(=O)[C@H](CCCNC(=N)N)NC2=O)NC(=O)[C@@H](Cc2ccccc2)NC(=O)[C@H](CC(=O)O)NC(=O)CNC1=O` [indium-111 labelled] — result for “tumour to tissue ratio”: 4.34 ± 1.12 (athymic nude mice, female, U-87 MG glioma xenograft, tumour and liver; intravenous, 1 h; relative to: tumour over liver).
`CSCC[C@H](NC(=O)[C@H](CC(C)C)NC(=O)[C@H](Cc1c[nH]cn1)NC(=O)CNC(=O)[C@@H](NC(=O)[C@H](C)NC(=O)[C@H](Cc1c[nH]c2ccccc12)NC(=O)[C@H](CCC(N)=O)NC(=O)CCCCCNC(=O)CNC(=O)CNC(=O)CNC(=O)CSC(C)=O)C(C)C)C(N)=O` [technetium-99m labelled] has a log P of -0.39 ± 0.02 (shake-flask; n-octanol/water).
`N=C(N)NCCC[C@@H]1NC(=O)[C@H](CCCCNC(=O)CC[C@H](NC(=O)CCOCCOCCOCCOCCNC(=O)CN2CCN(CC(=O)O)CCN(CC(=O)O)CCN(CC(=O)O)CC2)C(=O)NCCCC[C@@H]2NC(=O)[C@@H](Cc3ccccc3)NC(=O)[C@H](CC(=O)O)NC(=O)CNC(=O)[C@H](CCCNC(=N)N)NC2=O)NC(=O)[C@@H](Cc2ccccc2)NC(=O)[C@H](CC(=O)O)NC(=O)CNC1=O` [indium-111 labelled] — result for “tumour to tissue ratio”: 1.1 ± 0.21 (athymic nude mice, female, U-87 MG glioma xenograft, tumour and kidney; intravenous, 24 h; relative to: tumour over kidney).
`CCCC[C@H](NC(=O)CCCCCCCNC(=O)c1ccc(NN)nc1)C(=O)N[C@H]1CC(=O)NCCCC[C@@H](C(N)=O)NC(=O)[C@H](Cc2c[nH]c3ccccc23)NC(=O)[C@H](CCCNC(=N)N)NC(=O)[C@@H](Cc2ccccc2)NC(=O)[C@H](Cc2c[nH]cn2)NC1=O` [technetium-99m labelled] has an uptake of 19.6 ± 7.36 %ID/g (C57 mouse, B16/F1 melanoma, kidneys; intravenous, 0.5 h).
For `CC[C@H]1CN2CCc3cc(OC)c(OC)cc3[C@@H]2C[C@@H]1C[C@@H]1c2cc(OC)c(OC)cc2CCN1C(=O)OCc1ccc(NC(=O)[C@@H]2CCCN2C(=O)[C@H](C)NC(=O)[C@H](CCC(N)=O)NC(=O)[C@H](CC(C)C)NC(=O)[C@H](CCCCN)NC(=O)[C@H](CO)NC(=O)[C@H](CO)NC(=O)[C@H](Cc2cnc[nH]2)NC(C)=O)cc1`, the toxic dose was 50 mg/kg (convulsions and death; mouse; intravenous, single dose).
For `CC[C@@]1(OC(=O)CCC(=O)NCCCC[C@H](NC(=O)[C@H](Cc2ccccc2)NC(=O)[C@H](Cc2ccccc2)NC(=O)CCSC2=C(/C=C/C3=[N+](C)c4ccccc4C3(C)C)CCC/C2=C\C=C2\N(C)c3ccccc3C2(C)C)C(=O)N[C@@H](CCCCNC(=O)CCCC[C@@H]2SC[C@@H]3NC(=O)N[C@@H]32)C(=O)O)C(=O)OCc2c1cc1n(c2=O)Cc2cc3ccccc3nc2-1`, “time to plateau tumour signal” read 24 h (fluorescence imaging; BALB/c nude mice with 4T1 tumour; intravenous, 0.05 µmol/kg).
For `C[C@@H](O)[C@H](NC(=O)[C@@H]1CSSC[C@H](NC(=O)[C@@H](Cc2ccccc2)NC(=O)CN2CCCN3CCN(CCCN(CP(=O)(O)O)CC3)CC2)C(=O)N[C@@H](Cc2ccc(O)cc2)C(=O)N[C@H](Cc2c[nH]c3ccccc23)C(=O)N[C@@H](CCCCN)C(=O)N[C@@H]([C@@H](C)O)C(=O)N1)C(=O)O` [copper-64 labelled], “activity excreted via kidneys” read less than 10% (male Lewis rat, AR-42J tumour-bearing; dose not given, 1 to 24 h).
`CC(C)C[C@@H]1NC(=O)[C@H](C(C)C)NC(=O)[C@H](CO)NC(=O)CNC(=O)CNC(=O)[C@H](CCCNC(=N)N)NC(=O)[C@@H]2CCCN2C(=O)[C@@H](NC(=O)CC[C@H](NC(=O)c2ccc(N(C)Cc3cnc4nc(N)nc(N)c4n3)cc2)C(=O)O)C(C)(C)SSC[C@@H](C(=O)O)NC(=O)CNC(=O)[C@H]([C@@H](C)O)NC(=O)[C@H](C(C)C)NC1=O` has a half-life of 38 min (chemical stability; rat heart homogenate; 1 µM, 37 °C).
`N=C(N)NCCC[C@@H]1NC(=O)[C@H](CCCCNC(=O)CCOCCOCCOCCOCCNC(=O)CN2CCN(CC(=O)O)CCN(CC(=O)O)CCN(CC(=O)O)CC2)NC(=O)[C@@H](Cc2ccccc2)NC(=O)[C@H](CC(=O)O)NC(=O)CNC1=O` [indium-111 labelled]: “tumour to tissue ratio” 0.52 ± 0.1 (athymic nude mice, female, U-87 MG glioma xenograft, tumour and blood; intravenous, 0.5 h; relative to: tumour over blood).
`CC(=O)N[C@@H](CCCCN)C(=O)N[C@@H](CS)C(=O)N[C@@H](CS)C(=O)N[C@@H](Cc1ccc(O)cc1)C(=O)N[C@@H](CO)C(=O)N[C@@H](CC(C)C)C(=O)NCC(=O)NCC(=O)NCC(=O)N[C@@H](CO)C(=O)N[C@@H](CO)C(=O)N[C@@H](CCCCN)C(=O)N[C@@H](Cc1ccc(O)cc1)C(=O)N[C@@H](CCC(N)=O)C(=O)N[C@@H](CO)C(=O)N[C@@H](CC(C)C)C(=O)OCCN(c1ccccc1)C(C)c1cc(C)cn2c(=O)cc(N3CCOCC3)nc12` (stereo partly drawn) has a half-life of 15 min (mouse serum 50%; 5 µM, 37 °C).
`N=C(N)NCCC[C@@H]1NC(=O)[C@H](CCCCNC(=O)CCOCCOCCOCCOCCNC(=O)CC[C@H](NC(=O)CCOCCOCCOCCOCCNC(=O)CC[C@H](NC(=O)CN2CCN(CC(=O)O)CCN(CC(=O)O)CCN(CC(=O)O)CC2)C(=O)NCCOCCOCCOCCOCCC(=O)N[C@@H](CCC(=O)NCCOCCOCCOCCOCCC(=O)NCCCC[C@@H]2NC(=O)[C@@H](Cc3ccccc3)NC(=O)[C@H](CC(=O)O)NC(=O)CNC(=O)[C@H](CCCNC(=N)N)NC2=O)C(=O)NCCOCCOCCOCCOCCC(=O)NCCCC[C@@H]2NC(=O)[C@@H](Cc3ccccc3)NC(=O)[C@H](CC(=O)O)NC(=O)CNC(=O)[C@H](CCCNC(=N)N)NC2=O)C(=O)NCCOCCOCCOCCOCCC(=O)NCCCC[C@@H]2NC(=O)[C@@H](Cc3ccccc3)NC(=O)[C@H](CC(=O)O)NC(=O)CNC(=O)[C@H](CCCNC(=N)N)NC2=O)NC(=O)[C@@H](Cc2ccccc2)NC(=O)[C@H](CC(=O)O)NC(=O)CNC1=O` [indium-111 labelled]: “tumour to tissue ratio” 4.7 ± 0.86 (athymic nude mice, female, U-87 MG glioma xenograft, tumour and lungs; intravenous, 72 h; relative to: tumour over lungs).
`CC(C)C[C@H](NC(=O)[C@@H]1CCCN1C(=O)[C@H](CCCCN)NC(=O)[C@@H](N)CO)C(=O)N1CCC[C@H]1C(=O)N[C@@H](CCC(=O)O)C(=O)N[C@H](C(=O)N[C@H](C(=O)N[C@@H](CC(=O)O)C(=O)N[C@@H](CCC(=O)O)C(=O)N[C@@H](Cc1ccc(O)cc1)C(=O)N[C@@H](Cc1cn(CCOCCOCCOCCNC(=O)CCc2ccc(O)c(CN(CCN(CC(=O)O)Cc3cc(CCC(=O)NCCCC[C@H](NC(=O)N[C@@H](CCC(=O)O)C(=O)O)C(=O)O)ccc3O)CC(=O)O)c2)nn1)C(=O)O)[C@@H](C)O)C(C)C` [gallium-68 labelled] — result for “standardized uptake value”: 0.02 g/g (NMRI nu/nu mice, LNCaP tumour, muscle; 135.34 nmol/kg, low molar activity).
Under “radioactivity in urine”, `N=C(N)NCCC[C@@H]1NC(=O)[C@H](CCCCNC(=O)CCOCCOCCOCCOCCNC(=O)CC[C@H](NC(=O)CCOCCOCCOCCOCCNC(=O)[C@H](CCCCNC(=O)c2ccc(NN)nc2)NC(=O)c2ccc(NN)nc2)C(=O)NCCOCCOCCOCCOCCC(=O)NCCCC[C@@H]2NC(=O)[C@@H](Cc3ccccc3)NC(=O)[C@H](CC(=O)O)NC(=O)CNC(=O)[C@H](CCCNC(=N)N)NC2=O)NC(=O)[C@@H](Cc2ccccc2)NC(=O)[C@H](CC(=O)O)NC(=O)CNC1=O` [technetium-99m labelled] is recorded as greater than 90% (radio-HPLC; athymic nude mice; dose not given; relative to: collected radioactivity).
`CCCC[C@H](NC(=O)CNC(=O)CNC(=O)c1ccc(NN)nc1)C(=O)N[C@H]1CC(=O)NCCCC[C@@H](C(N)=O)NC(=O)[C@H](Cc2c[nH]c3ccccc23)NC(=O)[C@H](CCCNC(=N)N)NC(=O)[C@@H](Cc2ccccc2)NC(=O)[C@H](Cc2c[nH]cn2)NC1=O` [technetium-99m labelled] gave an uptake ratio of 1.32 (C57 mouse, B16/F1 melanoma; 2 h, together with: NDP-MSH blockade; relative to: tumour over lung).

Some of these lines once more:
`CC(C)C[C@@H]1NC(=O)[C@H](C(C)C)NC(=O)[C@H](CO)NC(=O)CNC(=O)CNC(=O)[C@H](CCCNC(=N)N)NC(=O)[C@@H]2CCCN2C(=O)[C@@H](NC(=O)CC[C@H](NC(=O)c2ccc(N(C)Cc3cnc4nc(N)nc(N)c4n3)cc2)C(=O)O)C(C)(C)SSC[C@@H](C(=O)O)NC(=O)CNC(=O)[C@H]([C@@H](C)O)NC(=O)[C@H](C(C)C)NC1=O` has a half-life of 38 min (chemical stability; rat heart homogenate; 1 µM, 37 °C).
